Experimental data collected from several papers.
Every numbered part comes from another study and shows a few of its results, in no order. “And” joins repeats or separate records; there may be more than shown.
Chain of UniProt Q96SB4 (whole entry, looked up): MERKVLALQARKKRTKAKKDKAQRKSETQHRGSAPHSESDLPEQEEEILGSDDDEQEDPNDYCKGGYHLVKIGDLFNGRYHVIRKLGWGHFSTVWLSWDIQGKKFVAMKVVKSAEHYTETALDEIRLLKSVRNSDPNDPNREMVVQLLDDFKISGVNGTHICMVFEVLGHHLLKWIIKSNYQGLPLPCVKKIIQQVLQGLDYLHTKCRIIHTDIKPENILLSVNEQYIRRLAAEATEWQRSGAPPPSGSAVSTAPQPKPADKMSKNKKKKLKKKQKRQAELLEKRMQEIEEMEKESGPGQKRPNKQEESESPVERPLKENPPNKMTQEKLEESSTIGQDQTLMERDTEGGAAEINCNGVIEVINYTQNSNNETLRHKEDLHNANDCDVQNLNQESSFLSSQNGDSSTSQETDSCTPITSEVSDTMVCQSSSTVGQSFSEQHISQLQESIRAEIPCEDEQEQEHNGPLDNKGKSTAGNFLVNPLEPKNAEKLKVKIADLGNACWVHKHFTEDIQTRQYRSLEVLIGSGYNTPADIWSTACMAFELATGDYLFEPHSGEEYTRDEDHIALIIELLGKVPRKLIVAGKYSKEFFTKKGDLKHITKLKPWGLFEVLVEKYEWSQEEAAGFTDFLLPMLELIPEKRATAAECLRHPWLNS
Chain of UniProt P42680 (whole entry, looked up): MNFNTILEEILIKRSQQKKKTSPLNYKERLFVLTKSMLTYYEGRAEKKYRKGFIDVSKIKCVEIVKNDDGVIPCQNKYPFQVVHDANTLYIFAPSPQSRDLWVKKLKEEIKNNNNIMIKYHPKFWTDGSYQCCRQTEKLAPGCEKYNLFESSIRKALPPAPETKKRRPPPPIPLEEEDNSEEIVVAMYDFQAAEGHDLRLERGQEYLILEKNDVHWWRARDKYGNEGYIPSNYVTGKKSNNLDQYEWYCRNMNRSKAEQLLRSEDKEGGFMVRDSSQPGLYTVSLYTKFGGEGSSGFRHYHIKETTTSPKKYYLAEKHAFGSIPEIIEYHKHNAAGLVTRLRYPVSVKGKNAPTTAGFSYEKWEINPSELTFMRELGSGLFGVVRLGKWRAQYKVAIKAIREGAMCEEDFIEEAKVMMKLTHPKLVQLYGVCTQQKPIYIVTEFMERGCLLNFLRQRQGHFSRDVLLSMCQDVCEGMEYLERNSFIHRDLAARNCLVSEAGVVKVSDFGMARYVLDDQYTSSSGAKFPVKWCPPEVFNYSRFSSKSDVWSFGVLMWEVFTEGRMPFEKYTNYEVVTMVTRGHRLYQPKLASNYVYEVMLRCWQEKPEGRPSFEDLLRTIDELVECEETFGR
Chain of UniProt P49760 (whole entry, looked up): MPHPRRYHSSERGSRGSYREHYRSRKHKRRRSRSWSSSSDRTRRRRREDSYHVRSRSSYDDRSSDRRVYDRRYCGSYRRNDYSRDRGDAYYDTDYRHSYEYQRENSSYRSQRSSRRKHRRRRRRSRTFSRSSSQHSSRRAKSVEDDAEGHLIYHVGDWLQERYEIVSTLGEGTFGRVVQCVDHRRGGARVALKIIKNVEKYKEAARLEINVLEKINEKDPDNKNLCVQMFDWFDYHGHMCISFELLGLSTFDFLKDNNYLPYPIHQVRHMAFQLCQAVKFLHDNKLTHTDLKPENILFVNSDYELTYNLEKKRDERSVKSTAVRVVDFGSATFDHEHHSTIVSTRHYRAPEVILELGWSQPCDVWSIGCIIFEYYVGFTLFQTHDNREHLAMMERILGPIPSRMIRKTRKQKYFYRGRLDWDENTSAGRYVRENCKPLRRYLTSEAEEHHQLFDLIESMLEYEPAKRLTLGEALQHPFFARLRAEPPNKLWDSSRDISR
Chain of UniProt Q9HBY8 (whole entry, looked up): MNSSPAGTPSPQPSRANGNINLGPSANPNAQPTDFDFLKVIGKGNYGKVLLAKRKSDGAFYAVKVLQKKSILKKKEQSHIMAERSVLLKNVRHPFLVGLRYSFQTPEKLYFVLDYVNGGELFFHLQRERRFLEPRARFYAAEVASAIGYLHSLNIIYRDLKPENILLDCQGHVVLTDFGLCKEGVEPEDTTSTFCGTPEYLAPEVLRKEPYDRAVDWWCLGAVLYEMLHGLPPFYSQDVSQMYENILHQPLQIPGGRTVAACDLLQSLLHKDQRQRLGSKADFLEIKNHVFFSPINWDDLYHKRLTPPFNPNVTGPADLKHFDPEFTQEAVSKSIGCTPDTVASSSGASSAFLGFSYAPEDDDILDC
Chain of UniProt Q13153 (whole entry, looked up): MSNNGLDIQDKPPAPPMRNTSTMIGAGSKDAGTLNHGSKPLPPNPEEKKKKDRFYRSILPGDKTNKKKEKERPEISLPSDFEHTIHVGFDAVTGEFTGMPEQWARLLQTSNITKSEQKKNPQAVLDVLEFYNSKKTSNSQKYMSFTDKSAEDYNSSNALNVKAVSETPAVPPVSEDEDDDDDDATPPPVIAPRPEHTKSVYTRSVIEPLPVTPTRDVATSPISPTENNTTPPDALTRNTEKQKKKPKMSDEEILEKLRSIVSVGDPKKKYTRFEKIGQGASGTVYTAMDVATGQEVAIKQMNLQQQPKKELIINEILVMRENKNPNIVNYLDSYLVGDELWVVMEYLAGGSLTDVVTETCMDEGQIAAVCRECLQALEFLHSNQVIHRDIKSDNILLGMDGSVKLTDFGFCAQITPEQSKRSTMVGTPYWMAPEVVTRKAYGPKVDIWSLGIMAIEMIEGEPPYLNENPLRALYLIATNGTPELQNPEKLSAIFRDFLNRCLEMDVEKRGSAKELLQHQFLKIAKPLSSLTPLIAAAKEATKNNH
Chain of UniProt Q9H0K1 (whole entry, looked up): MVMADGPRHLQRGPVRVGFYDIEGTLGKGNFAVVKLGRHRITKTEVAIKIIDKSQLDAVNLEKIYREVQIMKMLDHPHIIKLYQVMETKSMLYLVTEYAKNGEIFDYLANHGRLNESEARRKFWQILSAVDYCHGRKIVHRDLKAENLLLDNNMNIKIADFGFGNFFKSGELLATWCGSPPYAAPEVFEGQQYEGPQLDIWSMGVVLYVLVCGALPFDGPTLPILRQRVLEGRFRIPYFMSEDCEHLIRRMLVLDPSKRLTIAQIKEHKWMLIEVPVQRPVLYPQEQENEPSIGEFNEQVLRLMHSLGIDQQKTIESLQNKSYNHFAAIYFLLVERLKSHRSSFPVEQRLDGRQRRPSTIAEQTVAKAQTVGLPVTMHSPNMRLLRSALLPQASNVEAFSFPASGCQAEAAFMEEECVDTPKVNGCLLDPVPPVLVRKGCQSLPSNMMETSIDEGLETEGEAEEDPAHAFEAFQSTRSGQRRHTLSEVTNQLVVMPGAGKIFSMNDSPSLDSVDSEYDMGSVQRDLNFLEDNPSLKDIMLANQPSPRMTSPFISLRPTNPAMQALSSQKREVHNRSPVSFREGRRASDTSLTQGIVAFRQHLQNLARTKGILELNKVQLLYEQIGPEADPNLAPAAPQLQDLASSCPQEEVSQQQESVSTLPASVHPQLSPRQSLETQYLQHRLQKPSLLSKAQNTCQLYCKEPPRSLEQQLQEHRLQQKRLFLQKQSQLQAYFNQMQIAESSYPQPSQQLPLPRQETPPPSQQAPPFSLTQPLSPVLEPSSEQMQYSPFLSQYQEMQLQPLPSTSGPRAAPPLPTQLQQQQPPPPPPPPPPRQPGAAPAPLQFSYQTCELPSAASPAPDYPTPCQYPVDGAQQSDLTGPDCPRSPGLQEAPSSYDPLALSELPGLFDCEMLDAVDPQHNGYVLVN
Chain of UniProt P29317 (whole entry, looked up): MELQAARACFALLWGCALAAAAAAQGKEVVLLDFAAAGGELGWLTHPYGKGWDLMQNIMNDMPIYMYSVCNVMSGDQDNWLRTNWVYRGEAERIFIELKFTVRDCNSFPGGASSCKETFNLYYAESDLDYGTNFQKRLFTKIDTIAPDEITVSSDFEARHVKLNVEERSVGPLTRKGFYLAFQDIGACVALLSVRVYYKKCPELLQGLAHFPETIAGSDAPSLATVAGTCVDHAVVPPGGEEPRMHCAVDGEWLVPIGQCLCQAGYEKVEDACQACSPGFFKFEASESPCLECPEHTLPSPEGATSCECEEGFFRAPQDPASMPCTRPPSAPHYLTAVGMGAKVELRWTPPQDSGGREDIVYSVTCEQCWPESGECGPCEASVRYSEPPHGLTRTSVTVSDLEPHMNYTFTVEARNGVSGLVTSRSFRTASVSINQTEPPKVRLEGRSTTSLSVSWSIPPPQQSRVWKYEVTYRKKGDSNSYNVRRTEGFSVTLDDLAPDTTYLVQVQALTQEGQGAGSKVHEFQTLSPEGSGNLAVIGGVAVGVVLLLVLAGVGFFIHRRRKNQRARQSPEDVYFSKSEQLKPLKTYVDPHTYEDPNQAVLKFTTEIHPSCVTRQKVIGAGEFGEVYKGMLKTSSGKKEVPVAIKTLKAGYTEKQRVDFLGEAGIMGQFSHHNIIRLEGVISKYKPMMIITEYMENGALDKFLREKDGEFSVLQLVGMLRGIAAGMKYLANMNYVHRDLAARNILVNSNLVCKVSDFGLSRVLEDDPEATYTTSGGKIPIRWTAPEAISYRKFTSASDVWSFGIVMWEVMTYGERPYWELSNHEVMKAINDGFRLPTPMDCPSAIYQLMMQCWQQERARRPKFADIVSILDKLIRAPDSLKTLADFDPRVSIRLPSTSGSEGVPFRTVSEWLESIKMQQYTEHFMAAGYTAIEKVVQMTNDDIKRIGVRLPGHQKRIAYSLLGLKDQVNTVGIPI

Study 1 — organism: Sarcocystis neurona; read-out: parasite growth; concentration: 10 µM; time: 96 h; setting: second screen; reference: untreated
SMILES | log2 fold change
CCN1CCN(C(=O)N[C@@H](C(=O)N[C@@H]2C(=O)N3[C@@H]2SC(C)(C)[C@@H]3C(=O)O)c2ccccc2)C(=O)C1=O | 0.43
COc1cc(-c2ccc(=O)[nH]n2)ccc1OC(F)F | 0.55
CN(C)[C@@H]1C(O)=C(C(N)=O)C(=O)[C@@]2(O)C(O)=C3C(=O)c4c(O)ccc(Cl)c4[C@@H](O)[C@H]3C[C@@H]12 | 0.0324
CC[C@H](C)C(=O)O[C@H]1C[C@H](O)C=C2C=C[C@H](C)[C@H](CC[C@@H](O)C[C@@H](O)CC(=O)O)[C@H]21 | 0.18
CN(C)c1ccc(O)c2c1C[C@H]1C[C@H]3[C@H](N(C)C)C(O)=C(C(N)=O)C(=O)[C@@]3(O)C(O)=C1C2=O | -0.21
CCOC(=O)[C@H](CCc1ccccc1)N[C@@H](C)C(=O)N1Cc2ccccc2C[C@H]1C(=O)O | 0.45
CCCc1c(OCCCCc2nnn[nH]2)ccc(C(C)=O)c1O | 0.27
Cc1cccc(Nc2ccncc2S(=O)(=O)NC(=O)NC(C)C)c1 | 0.18
C[C@]12C=CC(=O)C=C1CC[C@@H]1[C@@H]2[C@@H](O)C[C@@]2(C)[C@H]1CC[C@]2(O)C(=O)CO | 0.36
CC1(C)S[C@@H]2[C@H](/N=C/N3CCCCCC3)C(=O)N2[C@H]1C(=O)O | 0.3
CC(=O)SCC(Cc1ccccc1)C(=O)NCC(=O)OCc1ccccc1 (stereo not drawn) | 0.67

Study 2 — read-out: enzyme activity; mode: inhibitor; concentration: 0.5 µM; reference: control
SMILES: COc1cc2c(Nc3ccc(Br)cc3F)ncnc2cc1OCC1CCN(C)CC1
target | remaining activity
Dual specificity protein kinase CLK2 (CLK2, Homo sapiens, UniProt P49760) | 89.7%
Ribosomal protein S6 kinase alpha-3 (RPS6KA3, Homo sapiens, UniProt P51812) | 97.8%
Tyrosine-protein kinase Tec (TEC, Homo sapiens, UniProt P42680) | 91.6%
Insulin-like growth factor 1 receptor (IGF1R, Homo sapiens, UniProt P08069) | 94.6%
Serine/threonine-protein kinase Sgk2 (SGK2, Homo sapiens, UniProt Q9HBY8) | 122%
SRSF protein kinase 1 (SRPK1, Homo sapiens, UniProt Q96SB4) | 97.9%
Tyrosine-protein kinase receptor TYRO3 (TYRO3, Homo sapiens, UniProt Q06418) | 33%
Ephrin type-A receptor 2 (EPHA2, Homo sapiens, UniProt P29317) | 21.5%
Serine/threonine-protein kinase SIK2 (SIK2, Homo sapiens, UniProt Q9H0K1) | 17.6%
Serine/threonine-protein kinase PAK 1 (PAK1, Homo sapiens, UniProt Q13153) | 108%
Muscle, skeletal receptor tyrosine-protein kinase (MUSK, Homo sapiens, UniProt O15146) | 94.6%

Other studies, line by line
SMILES | target or system | assay | conditions | scale | endpoint | value
CC(C)(C)c1cnc(CSc2cnc(NC(=O)C3CCN(CCCCCSc4cccc5c4CN(C4CCC(=O)NC4=O)C5=O)CC3)s2)o1 (stereo not drawn) | HuT78 | trypan blue | concentration not given, day 0 | reference: untreated control | relative cell number | 0.846 and 1.05 and 0.898
C[C@H](c1ccnc(Nc2nc3ccc(-c4cc(N(C)C)ncn4)cc3[nH]2)c1)N1CCN(C(=O)CC(F)(F)F)CC1 | Receptor-type tyrosine-protein kinase FLT3 (FLT3, Homo sapiens, UniProt P36888) | in vitro binding | – | – | binding affinity | 123 nM

Some of these lines once more (other studies, line by line):
SMILES | target or system | assay | conditions | scale | endpoint | value
CC(C)(C)c1cnc(CSc2cnc(NC(=O)C3CCN(CCCCCSc4cccc5c4CN(C4CCC(=O)NC4=O)C5=O)CC3)s2)o1 (stereo not drawn) | HuT78 | trypan blue | concentration not given, day 0 | reference: untreated control | relative cell number | 0.846 and 1.05 and 0.898
C[C@H](c1ccnc(Nc2nc3ccc(-c4cc(N(C)C)ncn4)cc3[nH]2)c1)N1CCN(C(=O)CC(F)(F)F)CC1 | Receptor-type tyrosine-protein kinase FLT3 (FLT3, Homo sapiens, UniProt P36888) | in vitro binding | – | – | binding affinity | 123 nM
